Assay results gathered from unrelated publications.
Each numbered part is a random draw from the data of one study; scales do not carry over between parts. Several values in a cell are separate wells, animals, samples, runs or records. Substitutions count along the parent as printed.
UniProt P61075, sequence (whole entry, looked up): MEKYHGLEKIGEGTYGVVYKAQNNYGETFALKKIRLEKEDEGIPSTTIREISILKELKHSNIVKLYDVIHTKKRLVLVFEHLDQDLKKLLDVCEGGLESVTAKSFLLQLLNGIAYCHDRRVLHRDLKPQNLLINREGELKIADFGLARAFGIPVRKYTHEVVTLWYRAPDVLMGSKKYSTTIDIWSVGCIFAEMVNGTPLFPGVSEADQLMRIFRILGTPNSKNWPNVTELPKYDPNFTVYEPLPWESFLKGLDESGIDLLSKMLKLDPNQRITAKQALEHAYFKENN

Set 1
Target: CCND3, cyclin fold, Cln2 fusion (human)
Method: yeast growth competition, sequencing
Sample: yeast
Notes: weak parent motif
Relative to: not given
Reading: higher = stronger binding
Parent: viral docking peptide; YKVKRRLVFGADD; partner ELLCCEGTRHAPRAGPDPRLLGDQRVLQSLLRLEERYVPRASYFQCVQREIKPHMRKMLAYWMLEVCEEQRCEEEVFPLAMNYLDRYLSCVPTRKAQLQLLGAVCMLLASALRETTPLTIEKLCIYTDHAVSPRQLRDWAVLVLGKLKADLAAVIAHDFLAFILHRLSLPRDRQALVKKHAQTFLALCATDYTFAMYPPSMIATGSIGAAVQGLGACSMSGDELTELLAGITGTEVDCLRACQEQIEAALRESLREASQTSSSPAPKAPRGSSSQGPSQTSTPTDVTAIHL
| Substitution | normalised enrichment score |
| --- | --- |
| L7C | -0.289 |
| K2C | 0.117 |
| D12P | 0.0218 |
| K2I | 0.0187 |
| K4N | 0.145 |
| G10S | -0.0044 |
| R5L | -0.0855 |
| R5Q | 0.121 |

Set 2
Target: HLA class I histocompatibility antigen, A alpha chain, allele A*26:03 (Homo sapiens, UniProt P04439)
Read-out: peptide-MHC binding
Molecule type: peptide
Concentration: concentration not given
| Molecule | binding |
| --- | --- |
| FQKDAKVLF | inactive |
| RSLYNTIATLY | inactive |
| YQRALHTSI | inactive |
| IYWLIFWRF | inactive |
| AVVEKWLGM | inactive |
| VELQIGWTV | inactive |
| NRLKPRDFK | inactive |
| PHPVVVRTL | inactive |

Further values, each from its own experiment
| Substance | tested on | assay | test system | conditions | endpoint | result |
| --- | --- | --- | --- | --- | --- | --- |
| meglumine antimoniate | Leishmania infantum chagasi | – | MHOM/BR/1972/BH46, golden hamster chronic infection, liver | intraperitoneal, 50 mg/kg/day, 10 days | parasite load | 10500 amastigotes/g tissue and 63.7 amastigotes/g tissue and 509 amastigotes/g tissue and 1510 amastigotes/g tissue and 73 amastigotes/g tissue |
| CCCCN(CCCC)C(=O)CN1C[C@H](c2cc(OC)c3c(c2)OCO3)[C@@H](C(=O)O)[C@@H]1CC(C)(C)CCC | Cyclin-dependent kinase 2 homolog (CRK2, Plasmodium falciparum, UniProt P61075) | cell-free assay, competition with immobilised ligand | – | 1 µM | remaining binding | 72.2% |

For quick reference, copied from above (set 1):
| Substitution | normalised enrichment score |
| --- | --- |
| K2I | 0.0187 |
